Results gathered from unrelated publications.
A part holds a random share of what one study measured.

Block 1 — method: universal PBM; form: double-stranded DNA, one strand shown; sample: in vitro; concentration: not given; direction: higher = stronger binding
Target: Sal-like protein 4, full length isoform B (SALL4, Homo sapiens, UniProt Q9UJQ4-2, residues 1-616)
Setting: 8-mer, flanks averaged, mean of replicates
Strand	E-score
CACGGGTC	-0.296
TGCGCACA	-0.0299
ACGTAACA	0.167
GGGGTAAC	-0.121
CGCCGACG	-0.28
GGGCTTTA	-0.216
GCAATTAA	0.231

Block 2 — method: protein binding microarray; form: double-stranded DNA, one strand shown; sample: in vitro; concentration: not given; reference: not given; direction: higher = stronger binding
Target: Histone acetyltransferase KAT6A, winged helix 1, GST fusion (KAT6A, Homo sapiens, UniProt Q92794, residues 1-85)
Setting: 8-mer, flanks averaged, mean of 2 arrays, mostly near background
Target sequence (chain): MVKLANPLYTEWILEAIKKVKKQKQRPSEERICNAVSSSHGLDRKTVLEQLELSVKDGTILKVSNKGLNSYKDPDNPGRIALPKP
Strand	E-score
AACGCCGA	0.369
AACTTGGG	-0.0948
CAGGATGG	-0.0433
ATGCCTCG	-0.0843
AACAGTAT	-0.102
TCCTCGAA	-0.125
CCCGTCAA	0.293
GTGCGGGA	0.373
CCGCCTAC	0.127

Block 3 — method: protein-binding microarray; form: double-stranded DNA, one strand shown; sample: in vitro; concentration: 2200 nM top; setting: 60-bp whole probe; added: salmon DNA 0.4 mg/ml; reference: random background probes; direction: higher = stronger binding
Target: Interferon regulatory factor 7, full length, phosphomimetic (IRF7, Homo sapiens, UniProt Q92985, residues 1-503, S471D/S472D/S475D/S476D/S477D/S483D/S484D/S487D)
Shared flanks, not repeated: GCCTAGCAC … GTGCTAGGTCTTGATTCGCTTGACGCTGCTG
Construct (chain): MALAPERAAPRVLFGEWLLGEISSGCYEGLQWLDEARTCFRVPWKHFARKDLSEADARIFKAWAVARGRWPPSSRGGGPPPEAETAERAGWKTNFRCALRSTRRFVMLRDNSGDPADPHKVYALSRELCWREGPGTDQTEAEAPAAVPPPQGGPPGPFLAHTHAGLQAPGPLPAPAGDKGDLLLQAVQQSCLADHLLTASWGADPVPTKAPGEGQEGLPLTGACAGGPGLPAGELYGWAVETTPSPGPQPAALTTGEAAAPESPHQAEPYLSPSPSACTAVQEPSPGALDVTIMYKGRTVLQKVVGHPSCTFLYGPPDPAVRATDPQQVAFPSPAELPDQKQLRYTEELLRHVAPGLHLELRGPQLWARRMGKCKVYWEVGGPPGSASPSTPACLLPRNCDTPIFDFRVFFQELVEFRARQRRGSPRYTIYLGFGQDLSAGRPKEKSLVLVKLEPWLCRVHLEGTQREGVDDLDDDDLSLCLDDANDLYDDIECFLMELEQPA
Strand	fitted relative affinity
TCAAGTTTGTATATATTACT	0.537 z-score
GACGGTTCCAGTTTCGAGAC	4.23 z-score
TTAGGACTGGGTAGCGGTTA	-0.755 z-score
AAGGGTTAAAATTTTGCTTC	-0.338 z-score
CACCATCTAGTTCTGCTTTG	2.07 z-score
TTAGATTTCAGACTGAATTA	-0.18 z-score

Other studies, line by line
Molecule	target	test	test system	conditions	how to read	quantity	result
PhoQ, residues 284 288 289 292 302 303 AMDMFI	PhoP, residues 12 14 15 18 19 MHTVL (Escherichia coli, UniProt P23836)	Sort-seq, measured: YFP reporter	E. coli	PhoQ-PhoP variant library, added: 10 µM Mg2+	reference: high Mg2+ state, higher = stronger signaling	fold induction	0.942

Some of these lines once more (block 2):
Strand	E-score
TCCTCGAA	-0.125
CAGGATGG	-0.0433
CCGCCTAC	0.127
AACAGTAT	-0.102
